Published values collected from several papers.
Compare with care: the assays were run in different laboratories. Several values in a cell are separate wells, animals, samples, runs or records. Numbers after ± are the reported error.
TDP1: Tyrosyl-DNA phosphodiesterase 1 (TDP1, Homo sapiens, UniProt Q9NUW8)
UniProt Q9NUW8, sequence (whole entry, looked up): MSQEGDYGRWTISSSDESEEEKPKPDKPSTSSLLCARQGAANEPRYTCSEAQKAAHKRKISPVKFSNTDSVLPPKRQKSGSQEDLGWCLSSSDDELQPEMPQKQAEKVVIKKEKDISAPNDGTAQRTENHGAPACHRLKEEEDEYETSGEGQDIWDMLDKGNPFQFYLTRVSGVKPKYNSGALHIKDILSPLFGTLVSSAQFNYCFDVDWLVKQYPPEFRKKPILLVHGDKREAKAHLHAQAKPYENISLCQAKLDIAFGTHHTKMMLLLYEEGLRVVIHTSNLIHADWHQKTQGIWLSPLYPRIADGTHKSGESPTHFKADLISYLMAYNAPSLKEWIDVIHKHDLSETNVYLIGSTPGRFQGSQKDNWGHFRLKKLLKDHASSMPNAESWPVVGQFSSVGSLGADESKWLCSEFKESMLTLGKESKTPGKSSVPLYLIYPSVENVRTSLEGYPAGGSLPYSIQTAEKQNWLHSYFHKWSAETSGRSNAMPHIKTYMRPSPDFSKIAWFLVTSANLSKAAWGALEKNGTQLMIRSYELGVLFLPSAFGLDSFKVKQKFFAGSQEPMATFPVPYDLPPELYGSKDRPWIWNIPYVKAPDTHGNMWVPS

For `CC[C@H](C)[C@@H]1NC(=O)[C@H](Cc2ccc(O)cc2)NC(=O)CSC[C@@H](C(N)=O)NC(=O)[C@H](CC(N)=O)NC(=O)[C@H](Cc2c[nH]cn2)NC(=O)[C@H](Cc2ccc(O)cc2)NC(=O)[C@H](CC(=O)O)NC(=O)[C@H](Cc2ccc(F)c(F)c2)NC(=O)[C@H](CC(C)C)NC(=O)[C@H](CCCNC(=N)N)NC1=O`, the membrane retention was -0.02% (PAMPA; 200 µM, 5 h, pH 7.4).
`COc1cccc(OC)c1-c1cc(C(=O)NC2(C(=O)O)C3CC4CC(C3)CC2C4)nn1-c1ccc(C(=O)NCCNC(=O)[C@H](CCCCNC(=O)[C@H](CC(C)C)NC(=O)C2OC2C(=O)O)NC(=O)CN2CCN(CC(=O)[O-])CCN(CC(=O)[O-])CCN(CC(=O)[O-])CC2)cc1C(C)C.[177Lu+3]` (mixture of isomers) has a tumour-to-spleen ratio of 9.82 (mouse HT-29 xenograft; 4 h, biodistribution; relative to: tumour over spleen).
`CCCCN1C(=O)c2cccc3c(NCCCCCCN4CCOCC4)ccc(c23)C1=O` has an emission maximum of 524 nm (DMF).
With `CN(C)C(=O)c1ccnc(N2Cc3cn(Cc4ccc(C#N)cc4)nc3C2)n1` the half-life was 2.67 h (metabolic stability; rat, liver microsomes).
For `CC(C)(c1cc(Br)c(O)c(Br)c1)c1cc(Br)c(O)c(Br)c1`, “dose fraction in milk fat” read 46.2% (whole cow milk; 200 nM nominal).
For `CCCCN1C(=O)c2cccc3c(NCCCN4CCOCC4)ccc(c23)C1=O`, the emission maximum was 510 nm (dichloromethane).
Under “time to degradation”, `CC(=O)N[C@@H](CC[S+](C)[Ru-4]123([S+](C)CC[C@H](NC(C)=O)C(=O)O)[n+]4ccc5ccccc5c4Nc4cccc([n+]41)-c1cccc([n+]12)Nc1c2ccccc2cc[n+]13)C(=O)[O-].F[P-](F)(F)(F)(F)F` (stereo partly shown) is recorded as 16 h (DMSO; -20 °C).
`O=C(NS(=O)(=O)c1cccs1)c1cc2ccccc2n1Cc1ccc(Br)c2ccccc12` has a body weight of 36.5 g and 40.7 g and 37.8 g and 38.2 g and 39 g and 38.4 g (KM mouse, chronic hyperuricaemia model; dose not given, day 27).
The SUV of `O=C(Nc1cnccc1-c1ccc([18F])cc1)c1ccnc(NC(=O)C2CC2)c1` is reported as 1.23 (ex vivo gamma counting; GSK-3β transgenic mice, late-stage, stomach; intravenous, 120 min, mean, P-gp inhibitor pretreatment, with: tariquidar 15 mg/kg iv).
For `CCCCN1C(=O)c2cccc3c(NCCN4CCOCC4)ccc(c23)C1=O`, the emission maximum was 528 nm (acetonitrile).
The tracer uptake of `[123I]c1ccc2nc(-c3ccc(-n4ccnn4)nc3)cn2c1` is reported as 0.154 %ID/g (male Wistar rat, brain; intravenous, 4 MBq, 30 min).
The plasma concentration of `Cc1ncsc1-c1ccc(CNC(=O)[C@@H]2C[C@@H](O)CN2C(=O)[C@@H](NC(=O)COCC(C)(COCCOCCOCCNC(=O)C[C@@H]2N=C(c3ccc(Cl)cc3)c3c(sc(C)c3C)-n3c(C)nnc32)COCCOCCOCCNC(=O)C[C@@H]2N=C(c3ccc(Cl)cc3)c3c(sc(C)c3C)-n3c(C)nnc32)C(C)(C)C)cc1` is reported as 4490 ng/mL and 5100 ng/mL (male C57BL/6 mice, plasma; intravenous, 5 mg/kg, 1 h, 20-fold diluted sample).
`CC(C)C[C@H](NC(=O)[C@@H](CCCCNC(=O)[C@@H](Cc1ccccc1)NC(=O)CCCCCCCNC(=O)CN1CCN(CC(=O)O)CCN(CC(=O)O)CCN(CC(=O)O)CC1)NC(=O)[C@H](Cc1ccc(O)cc1)NC(=O)[C@H](CO)NC(=O)[C@H](Cc1c[nH]c2ccccc12)NC(=O)[C@H](Cc1c[nH]cn1)NC(=O)[C@@H]1CCC(=O)N1)C(=O)N[C@@H](CCCNC(=N)N)C(=O)N1CCC[C@H]1C(=O)NCC(N)=O` [indium-111 labelled] gave an excreted dose of 82.2 ± 7.84% (male athymic nude mice, DU-145 prostate cancer xenograft, urine; intravenous, 0.037 MBq, 2 h).
`Cc1cc(-c2ccc(C(=O)[C@@H]3CCCC[C@H]3C(=O)Nc3cnn4c3C(=O)NCC4)cc2)[nH]n1`: “recovery of radioactivity per interval” 2.08% (human, urine; oral, 200 mg, 0-6 h; relative to: dose).
For `CC(C)(O)c1ncc([S@](N)(=O)=NC(=O)Nc2c3c(cc4c2CCC4)CCC3)s1`, “subjects with TEAEs” read 17% (item: skin, subcutaneous tissue disorders; healthy human; oral, 600 mg, SDD formulation).
`COc1cccc(OC)c1-c1cc(C(=O)NC2(C(=O)O)C3CC4CC(C3)CC2C4)nn1-c1ccc(C(=O)N(C)CCCN(C)CCCN(C)C(=O)[C@H](CCCCNC(=O)[C@H](CC(C)C)NC(=O)C2OC2C(=O)O)NC(=O)CN2CCN(CC(=O)[O-])CCN(CC(=O)[O-])CCN(CC(=O)[O-])CC2)cc1C(C)C.[177Lu+3]` (mixture of isomers) has a tumour-to-spleen ratio of 6.87 (mouse HT-29 xenograft; 168 h, biodistribution; relative to: tumour over spleen).
`O=C(Nc1cnccc1-c1ccc([18F])nc1)c1ccnc(NC(=O)C2CC2)c1` has an SUV of 8.11 (FVB/NJ mice, both sexes, liver; intravenous, 50 min, median, P-gp inhibitor pretreatment, with: tariquidar 15 mg/kg iv).
`Cc1noc(C)c1Cn1cc(N2C(=O)CN(Cc3cccc(O[C@@H]4O[C@H](C(=O)O)[C@@H](O)[C@H](O)[C@H]4O)c3)C2=O)cn1` has a plasma concentration of 478 ng/mL (Sprague-Dawley rat, male; oral, 100 mg/kg of parent drug, 8 h).
The Cmax of `C/C(N)=N/C(=N\S(=O)(=O)c1ccc(C(F)(F)F)cc1)N1C[C@H](c2ccccc2)C(c2ccc(Cl)cc2)=N1` is reported as 9830 ng/mL (C57BL/6 mouse, adipose tissue; intravenous, 10 mg/kg).
`Cc1ccc(CN2C(=O)/C(=N\c3ccc(Cl)cc3Br)c3ccccc32)cc1` gave an RDW of 15.4 ± 0.17% (mouse, blood; 150 mg/kg).
`COc1cnc2cccc(N3CCc4c(cc(Cn5ccnc5)cc4-c4cn(C)nc4C(F)(F)F)C3=O)c2c1` gave a half-life of 0.8 h (male CD-1 mouse, plasma; intraperitoneal, 10 mg/kg).
Under “intact radiolabelled complex”, `O=C([O-])CN1CCN(CC(=O)[O-])CCN(CC(CCCc2ccccc2[N+](=O)[O-])N(CC(=O)[O-])CC(=O)[O-])CC1.[177Lu+3]` (stereo not shown) is recorded as 100% (HPLC; human serum; 327 h, pH 7, 37 °C).
`COCC1CN(C2CCN(c3cc(OC)c(Nc4ncc(Br)c(Nc5ccc6c(c5P(C)(C)=O)OCCO6)n4)cc3C)CC2)C1`: “patients with adverse events” 100% (EGFR-mutant NSCLC patients; oral, 90 mg once daily).
`CCC1CNC(CC)CN(C(C(=O)[O-])c2ccc(C(=O)[O-])cc2)C(CC)CN(CC(=O)[O-])C(CC)CN1.[Mn+2]` (stereo not shown) has a Mn uptake of 9.77 ± 3.9% (ICP-MS; BALB/c mice, intestine; intravenous, 0.05 mmol/kg, 5 min; relative to: injected dose).
For `CN(C)C(=O)c1ccnc(N2Cc3cn(Cc4ccc(F)cc4F)nc3C2)n1`, the Papp was 33.9 ×10⁻⁶ cm/s (MDCK-MDR1).
The AUC(0-last) of `C=C(NC(=O)c1csc(-c2nc3c(cc2O)-c2nc(cs2)C(=O)NC(C(C)O)C(=O)NC(=C(C)OC)c2nc(cs2)C(=O)NC2c4nc(cs4)C(=O)NC(COC(=O)c4c5c6c(cccc6n4O)COC(=O)C(OC4CC(C)(O)C(N(C)C)C(C)O4)C2OC5)c2nc-3cs2)n1)C(N)=O` (stereo not shown) is reported as 787 ng·h/mL (Sprague-Dawley rat, male, plasma; intravenous infusion, 2 mg/kg single dose).
With `C=C[C@]1(C)C[C@@H](OC(=O)CSc2ccc(NC(=O)c3ccco3)cc2)[C@]2(C)[C@H](C)CC[C@]3(CCC(=O)[C@H]32)[C@@H](C)[C@@H]1O` the plasma concentration was 1360 ng/mL and 2250 ng/mL and 1900 ng/mL and 2310 ng/mL and 3140 ng/mL and 1980 ng/mL and 1430 ng/mL and 1660 ng/mL (Mycoplasma gallisepticum-infected chickens, plasma; intramuscular, 80 mg/kg, 3 h).
`COC(=O)C(C)n1nc(Cn2cc3cc(OCC[18F])c(Cl)cc3n2)c2ccccc2c1=O` (racemic) gave a parent compound of 3% (rat, plasma; 90 min).
The body weight of `Cc1cnc2nc1Nc1cccc(c1)COC/C=C/COCc1cc(ccc1OCCN1CCOCC1)N2` is reported as 19.9 g and 18.1 g and 19.5 g and 17.8 g and 18.2 g and 17.3 g (BALB/c mice, rhEPO-induced polycythemia; 75 mg/kg, day 1).
The fluorescence lifetime of `CCCCN1C(=O)c2cccc3c(NCCCCCCCCN4CCOCC4)ccc(c23)C1=O` is reported as 10.3 ns (DMF).
`CN(O)C(=O)CCC(=O)NCCCN(CCCCN(CCCNC(=O)CCC(=O)N(C)O)C(=O)CCC(=O)N(C)O)C(=O)CCC(=O)N(C)O.[89Zr]` has an intact complex of 100% (mouse plasma; 5 d, 37 °C).
`COc1cc2oc(-c3ccccc3)cc(=O)c2c(O)c1O` gave a half-wave potential of -1.85 V vs Ag/AgCl (cyclic voltammetry; DMSO, 0.1 M Bu4NPF6; 25 °C).
The tumour-to-spleen ratio of `COc1cccc(OC)c1-c1cc(C(=O)NC2(C(=O)O)C3CC4CC(C3)CC2C4)nn1-c1ccc(C(=O)N(C)CCOCCOCCN(C)C(=O)[C@H](CCCCNC(=O)[C@H](CC(C)C)NC(=O)C2OC2C(=O)O)NC(=O)CN2CCN(CC(=O)[O-])CCN(CC(=O)[O-])CCN(CC(=O)[O-])CC2)cc1C(C)C.[177Lu+3]` (mixture of isomers) is reported as 5.59 (mouse HT-29 xenograft; 4 h, biodistribution; relative to: tumour over spleen).
With `C=CC(=O)Nc1cc(Nc2nccc(-c3cn(C)c4ccccc34)n2)c(OC)cc1N(C)CCNC` the recovery was 96.1% (storage stability; human dried blood spot; 10 d, -80 °C, MQC level).
`Cc1nc(N)nc2c1C(=O)N[C@@H](c1ccc(F)cc1-c1cccc(O[11CH3])n1)C2` has a tracer uptake of 0.9 ± 0.1 %ID (ex vivo biodistribution; healthy mice, heart; 60 min post-injection, baseline, vehicle pre-treatment).
For `CCCCN1C(=O)c2cccc3c(NCCCCN4CCOCC4)ccc(c23)C1=O`, the emission maximum was 532 nm (methanol).
The pKa2 of `COc1cc(-c2nc3ccccc3s2)cc(CN2CCN(CC(=O)O)CCN(Cc3cc(-c4nc5ccccc5s4)cc(OC)c3O)CC2)c1O` is reported as 4.47 (UV-vis spectrophotometric titration; aqueous NaCl 0.1 M; 20 µM, 25 °C, pH 3 to 11).
For `Cc1nn(C)c(N2CCOCC2)c1C=NOCc1ccc(-c2nc3cc(-c4ccccc4)ccn3c2Nc2ccc(C(=O)O)cc2)cc1`, the inhibition was 84.8% (TDP1; enzyme activity, inhibitor; 100 µM, unpurified compound).
`CCCCN1C(=O)c2cccc3c(NCCCCCCCCCCN4CCOCC4)ccc(c23)C1=O` has an emission maximum of 512 nm (ethyl acetate).
`O=C(O)c1ccc(Nc2c(-c3ccc(CON=CCc4ccccc4)cc3)nc3cc(-c4ccccc4)ccn23)cc1` has an inhibition of 38.6% (TDP1; enzyme activity, inhibitor; 100 µM, unpurified compound).
With `Cc1ccc(OCC(=O)N(Cc2cccs2)c2ccn[nH]2)cc1` the remaining compound was 0.5 (rat plasma; 750 ng/mL, 2 h, 37 °C, unit not given; relative to: time zero).
Under “critical micelle concentration”, `CCCCCCCC/C=C/CCCCCCCC(=O)[O][Pt-2]1([OH])([Cl])([NH+]=C(CC)N(C)CCNc2c3ccccc3[nH+]c3ccccc23)[NH2+]CCC[NH2+]1.O=[N+]([O-])[O-].O=[N+]([O-])[O-]` is recorded as 1.1 µM (water).
`Cc1[nH]nc2c1N=C(c1ccccc1Cl)c1cnc(N3CCOCC3)cc1N2` has an AUC(0-last) of 2900 ng·h/mL (nude mouse, HCC1806 xenograft, plasma; oral, 15 mg/kg once daily).

A few entries again:
`Cc1noc(C)c1Cn1cc(N2C(=O)CN(Cc3cccc(O[C@@H]4O[C@H](C(=O)O)[C@@H](O)[C@H](O)[C@H]4O)c3)C2=O)cn1` has a plasma concentration of 478 ng/mL (Sprague-Dawley rat, male; oral, 100 mg/kg of parent drug, 8 h).
The Cmax of `C/C(N)=N/C(=N\S(=O)(=O)c1ccc(C(F)(F)F)cc1)N1C[C@H](c2ccccc2)C(c2ccc(Cl)cc2)=N1` is reported as 9830 ng/mL (C57BL/6 mouse, adipose tissue; intravenous, 10 mg/kg).
`Cc1ccc(CN2C(=O)/C(=N\c3ccc(Cl)cc3Br)c3ccccc32)cc1` gave an RDW of 15.4 ± 0.17% (mouse, blood; 150 mg/kg).
